# Experimental data of several laboratories.
# Values joined by “and” are separate records of one study, mostly repeats; a detail may differ. ± marks the error that the study gave.
SMILES,tested on,assay,system,setting,scale,quantity,value
CC(C)n1c(C2CCNCC2)nc2c([N+](=O)[O-])c(Br)c(Br)cc21,,item: Pneumonia,AML patients,125 mg,,adverse events causing interruption,7%
O=C(NCCN1CCCCC1)c1ccc(-c2ccc(N3CCSCC3)nc2)cc1,Vero-E6,CellTiter-Glo ATP,,"concentration not given, 72 h, second round 5-point","reference: DMSO 0%, hyamine -100%, more negative, more toxic",cytotoxicity efficacy,-24.5%
COc1cc2nccc(Oc3ccc(NC(=O)c4cc5c(n(-c6ccccc6)c4=O)CCCC5=O)nc3)c2cc1OC,,,relapsed/refractory AML patients,"oral, 10 mg once daily",,fatal drug-related TEAEs,0%
C[C@]1(O)C[C@@](N)(c2ccc(-c3nc4n(c3-c3ccccc3)COc3ccncc3-4)cc2)C1,,,"human, advanced or metastatic solid tumours","28 mg intermittent, phase I dose escalation",,patients with AST increased,0%
O=C1Nc2cc3[nH]nc(-c4ccncc4)c3cc2CN1Cc1ccccc1,,CTCAE v4.03,advanced solid tumour patients,"intravenous, 1.8 mg/kg, schedules 1/2",,patients with increased GGT,0%
CC[C@H](C)[C@H](NC(=O)[C@H](Cc1ccccc1)NC(=O)[C@H](CCC(=O)O)NC(=O)[C@H](CCCNC(=N)N)NC(=O)[C@H](C)NC(=O)[C@H](C)NC(=O)[C@H](CCC(N)=O)NC(=O)[C@H](CCC(=O)O)NC(=O)[C@H](CCC(=O)O)NC(=O)[C@H](CC(C)C)NC(=O)[C@H](Cc1ccc(O)cc1)NC(=O)[C@H](CO)NC(=O)[C@H](CO)NC(=O)[C@@H](NC(=O)[C@H](CC(=O)O)NC(=O)[C@H](CO)NC(=O)[C@@H](NC(=O)[C@H](Cc1ccccc1)NC(=O)[C@@H](NC(=O)CNC(=O)[C@H](CCC(=O)O)NC(=O)[C@H](C)NC(=O)CCc1cnc[nH]1)[C@@H](C)O)[C@@H](C)O)C(C)C)C(=O)N[C@@H](C)C(=O)N[C@@H](Cc1c[nH]c2ccccc12)C(=O)N[C@@H](CC(C)C)C(=O)N[C@H](C(=O)N[C@@H](CCCNC(=N)N)C(=O)NCC(=O)N[C@@H](CCCNC(=N)N)C(=O)N[C@@H](CCCCNC(=O)COCCOCCNC(=O)COCCOCCNC(=O)CC[C@H](NC(=O)CCCCCCCCCCCCCCCCC(=O)O)C(=O)O)C(=O)NCC(=O)NCC(=O)N[C@@H](CO)C(=O)N[C@@H](CCCCNC(=O)[C@H](CCCCNC(=O)[C@H](CCCCNc1c(NCCCCCN(O)C(=O)CCC(=O)NCCCCCN(O)C(=O)CCC(=O)NCCCCCN(O)C(C)=O)c(=O)c1=O)Nc1c(NCCCCCN(O)C(=O)CCC(=O)NCCCCCN(O)C(=O)CCC(=O)NCCCCCN(O)C(C)=O)c(=O)c1=O)NC(=O)[C@H](CCCCNc1c(NCCCCCN(O)C(=O)CCC(=O)NCCCCCN(O)C(=O)CCC(=O)NCCCCCN(O)C(C)=O)c(=O)c1=O)Nc1c(NCCCCCN(O)C(=O)CCC(=O)NCCCCCN(O)C(=O)CCC(=O)NCCCCCN(O)C(C)=O)c(=O)c1=O)C(=O)O)C(C)C [zirconium-89 labelled],,ex vivo gamma counting,"Sprague-Dawley rat, male, colon","intravenous, 1 nmol, 24 h",,tissue uptake,0.381 %ID/g and 0.36 %ID/g and 0.449 %ID/g and 0.317 %ID/g and 0.389 %ID/g
CCC[C@@](N)(CO)CCc1ccc(OCCCCCC(C)C)cc1,,,"dog, male hounds, plasma","oral capsule, 2.5 mg/kg, geometric mean",,Cmax,112 nM
CCCCCCCCCCCCCCCC(=O)N[C@@H](CCC(=O)NCCCC[C@H](NC(=O)[C@H](CC(=O)O)NC(=O)[C@H](CO)NC(=O)[C@@H](NC(=O)[C@H](Cc1ccccc1)NC(=O)[C@@H](NC(=O)CNC(=O)[C@H](CCC(N)=O)NC(=O)[C@H](CO)NC(=O)[C@@H](N)Cc1c[nH]cn1)[C@@H](C)O)[C@@H](C)O)C(=O)N[C@@H](CO)C(=O)N[C@@H](CCC(=O)O)C(=O)N[C@@H](Cc1ccc(O)cc1)C(=O)N[C@@H](CC(C)C)C(=O)N[C@@H](CC(=O)O)C(=O)N[C@@H](CO)C(=O)N[C@@H](CCC(=O)O)C(=O)N[C@@H](CCCNC(=N)N)C(=O)N[C@@H](C)C(=O)N[C@@H](CCCNC(=N)N)C(=O)N[C@@H](CC(=O)O)C(=O)N[C@@H](Cc1ccccc1)C(=O)N[C@H](C(=O)N[C@@H](C)C(=O)N[C@@H](Cc1c[nH]c2ccccc12)C(=O)N[C@@H](CC(C)C)C(=O)N[C@@H](CCC(=O)O)C(=O)N[C@@H](C)C(=O)NCC(=O)NCC(=O)O)C(C)C)C(=O)O,,item: Dizziness,humans CrCl 45 to 60 mL/min,"subcutaneous, 100 µg single dose",,treatment-related adverse events,0%
C=CCNc1c(O)cc2c(O)c1C[C@@H](C)C[C@H](OC)[C@H](O)[C@@H](C)/C=C(\C)[C@H](OC(N)=O)[C@@H](OC)/C=C\C=C(/C)C(=O)N2,,,unresectable or metastatic sarcoma,"intravenous, 400 mg/m^2, grade 3-4 lab change",,patients with ALT increase,9%
CO[C@H]1C[C@@H]2CC[C@@H](C)[C@@](O)(O2)C(=O)C(=O)N2CCCC[C@H]2C(=O)O[C@H]([C@H](C)C[C@@H]2CC[C@@H](OC(=O)NCCOCCOCCOCCOCCOCCOCCOCCOCCC(=O)N3CCc4cc(Cn5nc(-c6ccc7oc(N)nc7c6)c6c(N)ncnc65)ccc4C3)[C@H](OC)C2)C[C@@H](O)[C@H](C)/C=C(\C)[C@@H](O)[C@@H](OC)C(=O)[C@H](C)C[C@H](C)/C=C/C=C/C=C/1C,,phase 1 dose escalation,advanced solid tumour patients,"intravenous, 16 mg weekly, any grade",,any SAE incidence,50%
COc1ccc(-c2c(-c3ccc(C#N)c(F)c3)nc(N3CCC(N)CC3)n(C)c2=O)cc1F,,item: Diarrhea,neuroendocrine neoplasm patients,"oral, 60 mg, any grade, dose expansion",,treatment-related adverse event incidence,19%
C=CC(=O)Nc1cc(Nc2nccc(Nc3cc(Cl)c(F)cc3C(C)(C)O)n2)c(OC)cc1N1CC[C@@H](N(C)C)C1,,treatment-emergent adverse events,human,"oral, 200 mg, phase I clinical trial",,incidence of blood creatinine increased,6.3%
C[C@@H](NC(=O)N1C(=O)[C@H](Cc2ccnc(N)c2)[C@H]1C(=O)O)C1CCCCC1,,,healthy adult Chinese volunteers,"continuous intravenous infusion, 0.3 mg/kg/h, 5-day infusion, CTCAE 5.0 grading",,incidence of AEs leading to discontinuation,0%
C=CC(=O)N1CC[C@H](n2nc(C#Cc3cc(OC)cc(OC)c3)c3c(N)ncnc32)C1,,,human patients,"oral, dose not given, QD regimen, adverse drug reaction, together with: lanthanum carbonate hydrate",,"hyponatremia incidence, grade ≥3",4.2%
CC(=O)c1c(C)c2cnc(Nc3ccc(C4CCN(CCS(C)(=O)=O)CC4)cn3)nc2n(C2CCCC2)c1=O,,,"human, plasma","oral, 75 mg, day 1 single dose",,t1/2,8.72 h
COc1ccccc1-c1ccc(CN2CCC(NC(=O)Cc3ccc(F)cc3)C2)cc1 (stereo not shown),Vero-E6,CellTiter-Glo ATP,,"concentration not given, 72 h, first round 5-point","reference: DMSO 0%, hyamine -100%, more negative, more toxic",cytotoxicity efficacy,0%
O=S(=O)(Nc1ccccc1)c1ccc(NC(=S)Nc2ccccc2)cc1,,,"female mice, spleen","oral, 80 mg/kg daily 14 days",reference: body weight,relative organ weight,0.42%
CN1CC[C@@H](c2c(O)cc(O)c3c(=O)cc(-c4ccc(C(F)(F)F)cc4Cl)oc23)[C@@H]1CO,,item: Epistaxis,AML,"oral, 100 mg, intermittent dosing",,patients with adverse event,0%
Cn1cncc1-c1c(F)cncc1NC(=O)c1c(N)nn2cc(F)cnc12,,,human patients,"oral, 270 mg once daily",,grade ≥3 hyponatraemia incidence,25%
CC(C)Nc1ccnc(Nc2cccc(-c3cccnc3)c2)n1,,item: amylase,"mouse, blood","intraperitoneal, 10 mg/kg",,blood chemistry,3760 U/L
CN(C(=O)n1cnc(-c2ccc[n+]([O-])c2)c1)C1CCCCC1,,,"Wistar rat, medulla oblongata","oral, 10 mg/kg/day, 24 h, repeated 5 days",,concentration,8.1 ± 4.2 ng/g
C[C@H]1C[C@@H](N2C(=N)N[C@](C)(c3cccc(NC(=O)c4cccc(C#N)c4)c3Cl)CC2=O)CCO1,,,rat,"500 mg/kg, every other day",,triglycerides change,-36%
COc1cc2c(Oc3ccc4[nH]c(C)cc4c3F)ccnc2cc1OCC1(N)CC1,,,paediatric recurrent refractory sarcoma,10 mg,,grade 3 Anorexia,0%
C[C@]1(CO)Cc2ncn(-c3ccc(C#N)c(Cl)c3)c2C(=O)O1,,,"healthy Japanese adults, plasma","40 mg once daily, after first dose, multiple dose",,Tmax,1 h
CSCC[C@H](NC(=O)[C@H](CC(C)C)NC(=O)[C@H](CCCCN)NC(=O)[C@H](Cc1c[nH]c2ccccc12)NC(=O)[C@H](CC(N)=O)NC(=O)[C@H](CCCCN)NC(=O)CNC(=O)[C@H](CC(C)C)NC(=O)[C@H](CC(C)C)NC(=O)[C@H](CCCCN)NC(=O)[C@@H](N)CCCCN)C(=O)NCCCC[C@H](NC(=O)[C@H](CCSC)NC(=O)[C@H](CC(C)C)NC(=O)[C@H](CCCCN)NC(=O)[C@H](Cc1c[nH]c2ccccc12)NC(=O)[C@H](CC(N)=O)NC(=O)[C@H](CCCCN)NC(=O)CNC(=O)[C@H](CC(C)C)NC(=O)[C@H](CC(C)C)NC(=O)[C@H](CCCCN)NC(=O)[C@@H](N)CCCCN)C(=O)NCCCC[C@H](NC(=O)[C@H](CCCCNC(=O)[C@H](CCSC)NC(=O)[C@H](CC(C)C)NC(=O)[C@H](CCCCN)NC(=O)[C@H](Cc1c[nH]c2ccccc12)NC(=O)[C@H](CC(N)=O)NC(=O)[C@H](CCCCN)NC(=O)CNC(=O)[C@H](CC(C)C)NC(=O)[C@H](CC(C)C)NC(=O)[C@H](CCCCN)NC(=O)[C@@H](N)CCCCN)NC(=O)[C@H](CCSC)NC(=O)[C@H](CC(C)C)NC(=O)[C@H](CCCCN)NC(=O)[C@H](Cc1c[nH]c2ccccc12)NC(=O)[C@H](CC(N)=O)NC(=O)[C@H](CCCCN)NC(=O)CNC(=O)[C@H](CC(C)C)NC(=O)[C@H](CC(C)C)NC(=O)[C@H](CCCCN)NC(=O)[C@@H](N)CCCCN)C(=O)NCCC(=O)O,,mass spectrometry,human serum,,,methionine oxidation,5 to 10%
O=C(Nc1ccccc1)C1CCN(C(=O)Oc2cccnc2)CC1,,,healthy women,"oral, 100 mg, 9 days",,adverse event Fatigue,46.2%
NC(=O)[C@H]1CCN(c2ncnc(N)c2F)C[C@@H]1N1CCC[C@@H](Nc2cc(Cl)cc(C(F)(F)F)c2)C1=O,,,B-cell malignancy patients,"oral, 82 mg twice daily, dose",,grade ≥3 hyponatraemia,14%
CC(C)[C@@H]1NC(=O)CNC(=O)[C@H](CC(N)=O)NC(=O)[C@H](CCCNC(=N)N)NC(=O)[C@H](Cc2ccc(O)cc2)NC(=O)[C@H](C(C)C)NC(=O)[C@@H](NC(=O)[C@@H](NC(=O)[C@H](CC(N)=O)NC(=O)[C@H](Cc2c[nH]c3ccccc23)NC(=O)[C@H](C)NC(=O)[C@H](Cc2ccccc2)NC(=O)CN)C(C)C)CSSC[C@@H](C(=O)N[C@@H](Cc2cnc[nH]2)C(=O)N[C@@H](CCCNC(=N)N)C(=O)N[C@@H](CCCNC(=N)N)C(=O)N[C@@H](C)C(=O)N[C@@H](CC(N)=O)C(N)=O)NC(=O)[C@H](C(C)C)NC(=O)[C@H](CCCNC(=N)N)NC1=O,,,"ICR mice, blood","intraductal mammary, 5 mg/kg, day 5",,mean platelet volume,6.6 ± 0.3 fL
C[C@@H]1COCCN1c1cc(C2([S@](C)(=N)=O)CC2)nc(-c2cc[nH]c3nccc2-3)n1,,,"patients, advanced solid tumours","oral, 40 mg twice daily, 7 days, together with: carboplatin",,discontinuation due to adverse event,1 % patients
CC(C)C[C@H](NC(=O)[C@H](CCCCN)NC(=O)OCC1c2ccccc2-c2ccccc21)C(=O)N[C@H](C(=O)N[C@@H](Cc1ccccc1)C(=O)N[C@@H](Cc1ccccc1)C(=O)N[C@@H](CCCCN)C(=O)NCC(=O)N[C@@H](Cc1ccccc1)C(=O)N[C@@H](C)C(=O)N[C@@H](Cc1c[nH]c2ccccc12)C(=O)N[C@@H](CC(N)=O)C(=O)N[C@H](C(=O)N[C@H]1CSSC[C@@H](C(=O)N[C@@H](Cc2c[nH]cn2)C(=O)N[C@@H](CCCNC(=N)N)C(=O)N[C@@H](CCCNC(=N)N)C(=O)N[C@@H](C)C(=O)N[C@@H](CC(N)=O)C(N)=O)NC(=O)[C@H](C(C)C)NC(=O)[C@H](CCCNC(=N)N)NC(=O)[C@H](C(C)C)NC(=O)CNC(=O)[C@H](CC(N)=O)NC(=O)[C@H](CCCNC(=N)N)NC(=O)[C@H](Cc2ccc(O)cc2)NC(=O)[C@H](C(C)C)NC1=O)C(C)C)C(C)C,,,mouse mammary gland homogenate 50 mg/mL,"2.00 h, 37 °C",,peptide remaining,86.1%
COc1ccnc(C(=O)N[C@H]2COC(=O)[C@H](Cc3ccccc3)[C@@H](OC(=O)C(C)C)[C@H](C)OC2=O)c1OCOC(=O)C(C)C,,aerobic soil incubation,soil,"worst-case terminal value, for exposure modelling",,DT50,3.5 days
